Published values collected from several papers.
Every numbered part comes from another study and shows a few of its results, in no order. Changes are numbered by the printed parent chain.

Study 1
Target: CCND2, cyclin fold, Cln2 fusion (human)
Method: yeast growth competition, sequencing
Matrix: yeast
Notes: weak parent motif
Relative to: not given
Reading: higher = stronger binding
Quantity: normalised enrichment score
Starting sequence: viral docking peptide; KGVKRKLFAEDSS
KGVKRKLFARDSS [E10R]: -0.379
KGVKHKLFAEDSS [R5H]: -0.04
KGVMRKLFAEDSS [K4M]: -0.798
KGRKRKLFAEDSS [V3R]: -0.159

Study 2
Target: PABPC1L2, full length, GST fusion (mouse, UniProt A0ABA7IW68)
Method: RNAcompete
Molecule type: RNA
Matrix: in vitro
Concentration: 20 nM
Notes: 7-mer, probes averaged, single round
Relative to: mean of 7-mers
Reading: higher = stronger binding
Quantity: 7-mer Z-score
Target sequence (chain): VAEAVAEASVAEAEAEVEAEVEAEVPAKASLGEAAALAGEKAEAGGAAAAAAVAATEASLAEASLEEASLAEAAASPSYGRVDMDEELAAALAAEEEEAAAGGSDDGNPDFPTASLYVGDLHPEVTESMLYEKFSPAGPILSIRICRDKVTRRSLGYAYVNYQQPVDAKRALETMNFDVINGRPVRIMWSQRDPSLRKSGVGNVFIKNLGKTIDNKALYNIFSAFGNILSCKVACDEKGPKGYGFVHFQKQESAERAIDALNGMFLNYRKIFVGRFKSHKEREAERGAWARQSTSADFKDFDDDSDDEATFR
UAGAGAA: 0.245
AAUGGCC: 0.171
UUCUGCU: -0.429
GGAUCAA: 0.419
AAAAACG: 14.7
GCCCAUA: -0.28
CACGGUG: -0.021
UGUUACG: -0.329

Study 3
Target: vanadate, free oxyanion
Method: microfluidic competitive inhibition
Matrix: in vitro, cell-free expressed
Concentration: not given
Notes: derived from inhibition constants, unchanged parent 676 nM
Reading: lower = stronger binding
Quantity: oxyanion analog dissociation constant
Starting sequence: PafA, mature enzyme, eGFP fusion (Elizabethkingia meningoseptica, UniProt Q9KJX5); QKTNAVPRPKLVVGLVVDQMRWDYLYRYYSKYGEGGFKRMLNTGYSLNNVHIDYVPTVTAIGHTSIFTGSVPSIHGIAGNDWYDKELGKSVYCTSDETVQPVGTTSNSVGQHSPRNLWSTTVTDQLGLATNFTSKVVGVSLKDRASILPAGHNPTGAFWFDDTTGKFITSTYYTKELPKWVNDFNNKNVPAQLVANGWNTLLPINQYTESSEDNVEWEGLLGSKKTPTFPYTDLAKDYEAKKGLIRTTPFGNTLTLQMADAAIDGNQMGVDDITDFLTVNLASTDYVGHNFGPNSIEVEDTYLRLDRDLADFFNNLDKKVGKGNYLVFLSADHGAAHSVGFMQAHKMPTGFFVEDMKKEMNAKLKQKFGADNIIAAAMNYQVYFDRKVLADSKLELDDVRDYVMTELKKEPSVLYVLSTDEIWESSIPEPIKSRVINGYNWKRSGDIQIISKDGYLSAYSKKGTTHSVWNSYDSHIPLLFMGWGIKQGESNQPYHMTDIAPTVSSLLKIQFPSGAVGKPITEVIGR
P512G: 522 nM
Y54V: 609 nM
N49G: 585 nM
D53G: 517 nM
T247V: 809 nM
P430V: 661 nM
N372G: 659 nM
K408V: 647 nM
R526G: 686 nM
L396V: 825 nM
E522V: 636 nM
G33A: 550 nM
K367V: 763 nM
T64G: 1.32 µM
G340A: 784 nM
R526V: 613 nM
G323A: 1.26 µM
A500G: 571 nM
N188G: 605 nM
A195G: 912 nM
K89V: 598 nM
S444G: 517 nM
G269A: 640 nM
D397G: 801 nM
Y24V: 885 nM

Study 4
Target: Sal-like protein 4, full length isoform B (SALL4, Homo sapiens, UniProt Q9UJQ4-2, residues 1-616)
Method: universal PBM
Molecule type: double-stranded DNA, one strand shown
Matrix: in vitro
Concentration: not given
Notes: 8-mer, flanks averaged, mean of replicates
Reading: higher = stronger binding
Quantity: E-score
TGGACCAA: 0.0945
TATAGTGA: 0.319
CCGACCGG: -0.368
ATTGCGGC: -0.0755
ACGACGTA: 0.123
ACAGGTCG: -0.135
ATGCTAGC: 0.125
CTCCTATA: 0.229

Study 5
Target: POU, POU domain (Salpingoeca helianthica)
Method: Spec-seq
Molecule type: double-stranded DNA, one strand shown
Matrix: in vitro
Concentration: not given
Notes: whole probe, mean of replicates
Relative to: not given
Reading: lower = stronger binding
Quantity: relative binding energy
All sequences stand within: GAGTCGTCTCGTCAGCAC … CCGTAGAGCACTCAGGTC
Residues (chain): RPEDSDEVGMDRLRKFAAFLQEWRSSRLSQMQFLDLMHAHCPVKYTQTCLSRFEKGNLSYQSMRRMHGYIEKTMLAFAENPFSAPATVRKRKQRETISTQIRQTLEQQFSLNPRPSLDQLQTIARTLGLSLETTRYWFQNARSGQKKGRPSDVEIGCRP
ATGGTTAT: -0.203 ln ratio
ATAAAGAT: 0.543 ln ratio
GGATTAAT: -0.167 ln ratio
ATGCTAAA: 0.688 ln ratio
ATGCAGGC: 1.32 ln ratio
GGCCTAAT: 0.592 ln ratio
ATCTCGAT: 1.04 ln ratio
ATGCCCAT: 1.34 ln ratio

Mixed results
CNC(=O)c1ccc(-c2cnn3ccc(C(=O)N(C)c4ccc(Cl)c(C(=O)O)c4)cc23)cc1
Cmax (Wistar rat, both sexes, plasma; oral, 50 mg/kg/day, 2 weeks, GLP toxicology study): 28.9 ng/mL

Repeated from above (study 3):
K367V: 763 nM
Y24V: 885 nM
N372G: 659 nM
R526V: 613 nM
N188G: 605 nM
D397G: 801 nM
